Measurements pooled from the literature.
A part holds a random share of what one study measured. Substitutions count along the parent as printed.

Study 1
Target: Sal-like protein 4, full length isoform A (SALL4, Homo sapiens, UniProt Q9UJQ4, residues 1-1053)
UniProt Q9UJQ4, sequence (whole entry, looked up): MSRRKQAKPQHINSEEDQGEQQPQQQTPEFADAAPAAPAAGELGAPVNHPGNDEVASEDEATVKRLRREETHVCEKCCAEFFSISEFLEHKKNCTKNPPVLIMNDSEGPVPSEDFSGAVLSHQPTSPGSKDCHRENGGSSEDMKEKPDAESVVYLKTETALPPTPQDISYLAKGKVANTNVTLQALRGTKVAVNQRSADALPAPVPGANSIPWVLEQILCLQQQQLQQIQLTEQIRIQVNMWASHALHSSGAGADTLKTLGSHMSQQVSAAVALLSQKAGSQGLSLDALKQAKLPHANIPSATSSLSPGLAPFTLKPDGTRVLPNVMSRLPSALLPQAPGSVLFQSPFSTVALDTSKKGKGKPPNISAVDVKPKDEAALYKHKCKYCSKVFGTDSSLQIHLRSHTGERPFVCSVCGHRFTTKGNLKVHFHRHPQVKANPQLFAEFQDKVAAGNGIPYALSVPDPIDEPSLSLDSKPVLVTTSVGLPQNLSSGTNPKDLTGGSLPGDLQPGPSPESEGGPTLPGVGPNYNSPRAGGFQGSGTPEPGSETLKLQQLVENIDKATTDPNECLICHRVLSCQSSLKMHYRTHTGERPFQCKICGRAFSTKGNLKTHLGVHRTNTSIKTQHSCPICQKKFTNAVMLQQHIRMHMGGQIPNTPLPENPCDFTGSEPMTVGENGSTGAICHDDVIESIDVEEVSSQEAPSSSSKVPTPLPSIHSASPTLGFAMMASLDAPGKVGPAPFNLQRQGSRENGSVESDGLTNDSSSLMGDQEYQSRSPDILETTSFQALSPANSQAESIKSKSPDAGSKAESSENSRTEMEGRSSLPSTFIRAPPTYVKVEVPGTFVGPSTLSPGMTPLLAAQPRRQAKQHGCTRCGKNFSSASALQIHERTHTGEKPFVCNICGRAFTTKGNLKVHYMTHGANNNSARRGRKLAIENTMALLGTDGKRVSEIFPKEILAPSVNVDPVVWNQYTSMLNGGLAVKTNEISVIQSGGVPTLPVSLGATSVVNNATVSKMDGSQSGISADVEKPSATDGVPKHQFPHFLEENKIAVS
Technique: universal PBM
Molecule type: double-stranded DNA, one strand shown
Sample: in vitro
Tested at: 600 nM
Notes: 8-mer, flanks averaged, mean of replicates
Direction: higher = stronger binding
| Strand | E-score |
| --- | --- |
| AGACACTC | -0.165 |
| CTTTGTGC | -0.0493 |
| ACTTCGAG | 0.0305 |
| AATGTTTC | 0.233 |
| CGCACAGA | -0.0559 |
| ATTAAACG | 0.261 |

Study 2
Target: Fragile X messenger ribonucleoprotein 1, C-terminal low-complexity region (Fmr1, Mus musculus, UniProt P35922)
Technique: RNA Bind-n-Seq
Molecule type: RNA
Sample: in vitro
Tested at: 200 nM
Notes: whole 134-nt RNA, ends assumed
Together with: 150 mM KCl
Reference: input library
Direction: higher = stronger binding
| Strand | log2 enrichment |
| --- | --- |
| GGGAGUUCUACAGUCCGACGAUCACCAUGCAGGUGGGCAUCUUUGGGAAGUGGGGCAAGGGGGGGAUAGGGAGGGGGGUAACACUUUGGGAACAGGUAGUCCCAGGUCGUUUCUGGAAUUCUCGGGUGUCAAGG | 0.712 |
| GGGAGUUCUACAGUCCGACGAUCACCAAACAGGUGGGCAUCUUUGGGAAGUGGGGCAAGGGGGGGAUAGGGAGGGGGGUAACACUUUGGGAACAGGUGGUCCCAGGUCGUUUCUGGAAUUCUCGGGUGUCAAGG | 1.12 |
| GGGAGUUCUACAGUCCGACGAUCUCCUGUGCUACACAUCGUAUGUACCGAAUCGGGUUUUUUUGGGUUUUUGGGUUUUUGGGAAAGUAUUAUGUUACGCCGUUCGGAUCUGCAUGGAAUUCUCGGGUGUCAAGG | 0.203 |
| GGGAGUUCUACAGUCCGACGAUCAGUCCUGUGCUACACAUCGUAUGUACCGAAUCGGGUUUUUGGGUUUUUGGGAAAGGGAAAGUAUUAUGUUACGCCGUUCGGAUCUGCACUUGGAAUUCUCGGGUGUCAAGG | 0.28 |

Study 3
Target: CCND1, cyclin fold, Cln2 fusion (human)
Technique: yeast growth competition, sequencing
Sample: yeast
Notes: weak parent motif
Reference: not given
Direction: higher = stronger binding
Starting sequence: GMNC docking peptide (human); KNAKRNLSSEFAN; partner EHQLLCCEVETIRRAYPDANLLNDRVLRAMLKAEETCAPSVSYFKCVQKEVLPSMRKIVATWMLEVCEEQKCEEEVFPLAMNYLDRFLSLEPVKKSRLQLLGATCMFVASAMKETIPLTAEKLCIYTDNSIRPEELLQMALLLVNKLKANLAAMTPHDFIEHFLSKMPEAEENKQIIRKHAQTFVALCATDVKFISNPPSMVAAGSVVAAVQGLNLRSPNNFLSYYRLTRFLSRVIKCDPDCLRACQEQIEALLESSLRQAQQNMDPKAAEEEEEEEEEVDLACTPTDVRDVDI
| Substitution | normalised enrichment score |
| --- | --- |
| R5P | -0.176 |
| A12G | 0.098 |
| N6F | -0.0987 |

Single results of other studies
| Substance | target | test | system | setting | scale | quantity | value |
| --- | --- | --- | --- | --- | --- | --- | --- |
| PhoQ, residues 284 288 289 292 302 303 SNSSNI | PhoP, residues 12 14 15 18 19 VHSCL (Escherichia coli, UniProt P23836) | Sort-seq, refers to: YFP reporter | E. coli | PhoQ-PhoP variant library, together with: 10 µM Mg2+ | reference: high Mg2+ state, higher = stronger signaling | fold induction | 4.37 |

Some of these lines once more (study 2):
| Strand | log2 enrichment |
| --- | --- |
| GGGAGUUCUACAGUCCGACGAUCUCCUGUGCUACACAUCGUAUGUACCGAAUCGGGUUUUUUUGGGUUUUUGGGUUUUUGGGAAAGUAUUAUGUUACGCCGUUCGGAUCUGCAUGGAAUUCUCGGGUGUCAAGG | 0.203 |
